Measured values collected from several papers.
Lines come from different studies, so protocols differ.
Organism: Pseudomonas aeruginosa

For `CC(C)C[C@H](NC(=O)[C@H](CC(C)C)NC(=O)[C@H](CCCCN)NC(=O)[C@@H]1CCCN1C(=O)[C@H](CC(C)C)NC(=O)[C@H](CC(C)C)NC(=O)[C@H](CCCCN)NC(=O)[C@H](CC(C)C)NC(=O)[C@H](CC(C)C)NC(=O)[C@H](CO)NC(=O)CNC(=O)[C@H](Cc1ccccc1)NC(=O)[C@@H](N)Cc1ccccc1)C(N)=O`, the MIC was 50 to 100 µM (broth microdilution).
`CC[P+](CC)(CC)[Au-][S+](C[C@H]1O[C@H](O[C@H]2O[C@H](COC(C)=O)[C@@H](OC(C)=O)[C@H](OC(C)=O)[C@H]2OC(C)=O)[C@H](OC(C)=O)[C@@H](OC(C)=O)[C@@H]1OC(C)=O)[Au-][P+](CC)(CC)CC.[Cl-]` gave an MIC of > 194 µM (NCTC 13437).
`CC[C@@H](C)[C@@H](NC(=O)[C@@H](C)NC(=O)[C@@H](CCCCN)NC(=O)[C@@H](CC(C)C)NC(=O)[C@@H](CC(C)C)NC(=O)[C@H](NC(=O)[C@@H](CCCCN)NC(=O)[C@@H](CC(C)C)NC(=O)[C@@H](CCCCN)NC(=O)[C@@H](CCCCN)NC(=O)[C@@H](CCCCN)NC(=O)[C@@H](CCCCN)NC(=O)[C@@H](C)NC(=O)[C@@H](CCCCN)NC(=O)[C@@H](CO)NC(=O)[C@@H](Cc1ccccc1)NC(=O)[C@H](NC(=O)[C@@H](CCCCN)NC(=O)[C@@H](CC(C)C)NC(=O)[C@@H](Cc1ccccc1)NC(=O)[C@@H](CO)NC(=O)[C@@H](CCCCN)NC(=O)[C@@H](Cc1c[nH]c2ccccc12)NC(=O)[C@@H](CCCCN)NC(C)=O)[C@H](C)O)[C@H](C)O)C(=O)N[C@H](CO)C(=O)N[C@H](CCCCN)C(N)=O` gave an MIC of 5 µM (broth microdilution; M2; 24 h, 37 °C).
With `COc1ccc2ccc3c(c2c1)C=[N+]1C2CCCCC2[N+]2=Cc4cc(C)ccc4[O][Au-]21[O]3.F[P-](F)(F)(F)(F)F` (stereo not shown) the MIC was > 20 µM (bacterial growth, broth microdilution; carbapenem-resistant clinical isolate; 24 h).
With `CC(C)=CCc1cc(-c2coc3cc(O)c(CC=C(C)C)c(O)c3c2=O)ccc1O` the MIC was 128 µg/mL (ATCC 10145).
With `CC(C)C[C@H](NC(=O)[C@H](CC(N)=O)NC(=O)[C@H](CCCNC(=N)N)NC(=O)[C@@H](CC(C)C)NC(=O)[C@H](Cc1ccc2ccccc2c1)NC(=O)[C@H](CC(=O)O)NC(=O)[C@H](CCCCN)NC(=O)[C@@H](CC(C)C)NC(=O)[C@H](CCCNC(=N)N)NC(=O)[C@H](CCC(N)=O)NC(=O)[C@@H](NC(=O)[C@@H](CC(C)C)NC(=O)[C@H](CCCNC(=N)N)NC(=O)[C@H](CCCCN)NC(=O)[C@H](Cc1ccc(C(F)(F)F)cc1)NC(=O)CN)C(C)C)C(=O)N[C@H](C(N)=O)C(C)C` the MIC was 6.2 to 12.5 µM (broth microdilution; PAO1).
With `NC[C@H]1O[C@H](O[C@H]2[C@H](OCCCCCCCCCCCCn3cc(CNc4nc(NCc5cn(CCCCCCCCCCCCO[C@@H]6[C@@H](O)[C@H](N)C[C@H](N)[C@H]6O[C@H]6O[C@H](CN)[C@@H](O)C[C@H]6N)nn5)nc(NCc5cn(CCCCCCCCCCCCO[C@@H]6[C@@H](O)[C@H](N)C[C@H](N)[C@H]6O[C@H]6O[C@H](CN)[C@@H](O)C[C@H]6N)nn5)n4)nn3)[C@@H](O)[C@H](N)C[C@@H]2N)[C@H](N)C[C@@H]1O` the MIC was 64 µg/mL (microbial growth, broth dilution; PAO1).
The MIC of `CC(CCCOC(=O)CCC[N+](C)(C)C)C1CCC2C3C(OC(=O)CCC[N+](C)(C)C)CC4CC(OC(=O)CCC[N+](C)(C)C)CCC4(C)C3CC(OC(=O)CCC[N+](C)(C)C)C12C` (stereo not shown) is reported as > 250 µg/mL (microbial growth, broth dilution; ATCC27853; 16 h).
`COc1ccc2ccc3c(c2c1)C=[N+]1C2CCCCC2[N+]2=Cc4cc(C(C)(C)C)cc(C(C)(C)C)c4[O][Au-]21[O]3.F[P-](F)(F)(F)(F)F` (stereo not shown) has an MIC of > 20 µM (bacterial growth, broth microdilution; carbapenem-resistant; 24 h).
For `CO[C@@H](C(N)=O)[C@H](NC(=O)c1ccc(NC(=O)c2ccc([N+](=O)[O-])cc2)cc1)C(=O)Nc1ccc(C(=O)Nc2ccc(C(=O)Nc3ccc(C(=O)O)cc3)c(O)c2OC(C)C)cc1`, the MIC was 2 µg/mL (DSM 46316 ESBL 2).

Excerpt of the above:
For `CC(C)C[C@H](NC(=O)[C@H](CC(C)C)NC(=O)[C@H](CCCCN)NC(=O)[C@@H]1CCCN1C(=O)[C@H](CC(C)C)NC(=O)[C@H](CC(C)C)NC(=O)[C@H](CCCCN)NC(=O)[C@H](CC(C)C)NC(=O)[C@H](CC(C)C)NC(=O)[C@H](CO)NC(=O)CNC(=O)[C@H](Cc1ccccc1)NC(=O)[C@@H](N)Cc1ccccc1)C(N)=O`, the MIC was 50 to 100 µM (broth microdilution).
